Assay results from different studies.
A part holds a random share of what one study measured. Positions count from the first letter of the parent shown.

Sample 1
Target: CEP164, C-terminal peptide (human)
Method: DHFR complementation, deep sequencing
Medium: yeast
Notes: single substitutions, model-inferred values
Baseline: wild type
Direction: higher = weaker binding
Quantity: binding free energy change
Parent: PDZK1, PDZ domain 2 (human); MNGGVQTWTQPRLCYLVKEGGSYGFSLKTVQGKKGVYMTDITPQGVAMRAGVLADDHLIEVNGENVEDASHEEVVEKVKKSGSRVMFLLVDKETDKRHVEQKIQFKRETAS; partner HNRVKVYRF
Variant = L13P; value = 0.211 kcal/mol
Variant = V74P; value = 0.21 kcal/mol
Variant = W8R; value = -0.118 kcal/mol
Variant = D95R; value = -0.333 kcal/mol
Variant = Y15G; value = 0.435 kcal/mol
Variant = L16Q; value = 1.23 kcal/mol
Variant = F105K; value = -0.225 kcal/mol
Variant = E19Q; value = 0.05 kcal/mol
Variant = K28G; value = 0.821 kcal/mol
Variant = G51I; value = 1.19 kcal/mol
Variant = M38R; value = 2.07 kcal/mol
Variant = S111L; value = 0.372 kcal/mol
Variant = N62Q; value = 1.48 kcal/mol
Variant = D55F; value = 0.815 kcal/mol
Variant = A69I; value = -0.444 kcal/mol
Variant = K92L; value = 0.0549 kcal/mol
Variant = V99Q; value = -0.198 kcal/mol
Variant = Y37G; value = 2.39 kcal/mol

Sample 2
Target: Centromere-binding protein 1, full length, His-tagged (CBF1, Saccharomyces cerevisiae, UniProt P17106, residues 1-351)
Sequence of UniProt P17106 (whole entry, looked up): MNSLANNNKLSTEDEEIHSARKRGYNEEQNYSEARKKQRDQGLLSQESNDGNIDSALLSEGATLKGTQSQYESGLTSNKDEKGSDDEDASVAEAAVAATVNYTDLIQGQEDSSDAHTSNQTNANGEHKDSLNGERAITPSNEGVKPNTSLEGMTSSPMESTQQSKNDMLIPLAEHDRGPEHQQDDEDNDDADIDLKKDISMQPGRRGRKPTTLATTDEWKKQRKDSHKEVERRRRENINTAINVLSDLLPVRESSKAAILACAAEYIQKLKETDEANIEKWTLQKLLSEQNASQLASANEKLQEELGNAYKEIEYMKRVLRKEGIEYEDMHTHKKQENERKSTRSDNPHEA
Method: competition protein-binding microarray
Molecule type: double-stranded DNA, one strand shown
Medium: in vitro
Concentration: 2 µM
Notes: whole 60-bp probe, lowest competitor level
Added: Pho4 competitor, 0.05 µM
Direction: higher = stronger binding
Quantity: fluorescence intensity
Constant ends, left off below: … GTCTTGATTCGCTTGACGCTGCTG
Sequence = GAAGGTGGTCCAACACACGTGATGGACCTAAACTCG; value = 2830 a.u.
Sequence = CCGCCCGGTGCAATACACACGGCAAGCACTTTATCA; value = 73.1 a.u.
Sequence = AGGACGAGAAACAAGCACATGATGTGTGTCGAAAAA; value = 390 a.u.
Sequence = GTCTTGTCTCATTGACACGTGGGTGTCCCCACTTCA; value = 938 a.u.
Sequence = CGTCCTAGTGATTGTTCTGTGGGTGCCATGAGGAAG; value = 72 a.u.
Sequence = TTTATCGGTGCCGGCCACGTGGGTACCTCTTGCGAA; value = 886 a.u.
Sequence = TGCGCAACAACTTTTCACGTGCCGTTATGTCTAGAA; value = 1320 a.u.
Sequence = CAAACGGCATTCCGTCACGTACGATAACTTGATCCT; value = 106 a.u.
Sequence = TGGAGTTGTAAACGACATGTGAACCCTTAACACCAA; value = 148 a.u.
Sequence = CTTTCCCGATCTTGGAGGGTGGGTGTAGCACATTTG; value = 69 a.u.
Sequence = ATGATGTTGCATTTGCACGTGTTTTGTTGTACCTCT; value = 1770 a.u.
Sequence = GGCTCAAAGAGATCTCACGTGGTCGGAGTATGAACG; value = 1950 a.u.
Sequence = ATCATACCACAGTACCCCGTGGAGTTAATGTTTAAC; value = 108 a.u.
Sequence = CTAACGAAGGTTTGTCACATCACTTACAAGCCAAGT; value = 84 a.u.
Sequence = GATGTTCTTTTTCGCCACATGCTTCATGACGATTTA; value = 135 a.u.
Sequence = CTAACGAAGGTTTTTCACGTGAGCTACAAGCCAAGT; value = 1150 a.u.
Sequence = CCTGCAGCTGGCTCATTCGTGCTTTACTCTCTTTCC; value = 76 a.u.
Sequence = AGTGTCCAACTTATTAAGGTGCGGGCGCCTGGCTTG; value = 49.1 a.u.
Sequence = TTTGTTCCTTGGAACCACATGATTTACTCAACAAAT; value = 282 a.u.
Sequence = AGTTCTCGGACTTTTGACGTGCCAGTGCAATTATCC; value = 92.1 a.u.
Sequence = TCTTTTTTTTATTTGCACGTGCATCGAGGGGATCGA; value = 4220 a.u.
Sequence = AGCCAGAAAATATACCATGTGTGAAAATAGCGATAA; value = 113 a.u.
Sequence = CTTTCCCGATCTTGGCACGTGGGTGTAGCACATTTG; value = 1250 a.u.
Sequence = AGCAAAGGAGACTTAAACGTGAGAGAGACCTGGCCT; value = 75.4 a.u.
Sequence = CGTCCTAGTGATTGTAGGGTGGGTGCCATGAGGAAG; value = 84.3 a.u.

Sample 3
Target: CCNA2, cyclin fold, Cln2 fusion (human)
Method: yeast growth competition, sequencing
Medium: yeast
Notes: strong parent motif
Baseline: not given
Direction: higher = stronger binding
Quantity: normalised enrichment score
Parent: ORC1 docking peptide (human); PRARKRLELGNLG
Variant = R2T; value = 5.44
Variant = G10R; value = 2.92
Variant = K5F; value = 1.34
Variant = L9N; value = 0.708
Variant = G10I; value = 3.11
Variant = G13S; value = 5.4
Variant = A3N; value = 2
Variant = R4S; value = 1.11
Variant = E8R; value = 3.37
Variant = L9Y; value = 6.84
Variant = N11I; value = 3.6
Variant = R4Y; value = 1.01
Variant = R2K; value = 5.49
Variant = R4C; value = 2.21
Variant = L7R; value = 1.12
Variant = A3R; value = 0.915
Variant = R2Y; value = 2.23
Variant = R4P; value = 0.344
Variant = K5D; value = 0.399
Variant = A3W; value = 1.18

Sample 4
Target: Ras GTPase-activating protein-binding protein 1, RRM domain (G3BP1, Homo sapiens, UniProt Q13283)
Sequence of UniProt Q13283 (whole entry, looked up): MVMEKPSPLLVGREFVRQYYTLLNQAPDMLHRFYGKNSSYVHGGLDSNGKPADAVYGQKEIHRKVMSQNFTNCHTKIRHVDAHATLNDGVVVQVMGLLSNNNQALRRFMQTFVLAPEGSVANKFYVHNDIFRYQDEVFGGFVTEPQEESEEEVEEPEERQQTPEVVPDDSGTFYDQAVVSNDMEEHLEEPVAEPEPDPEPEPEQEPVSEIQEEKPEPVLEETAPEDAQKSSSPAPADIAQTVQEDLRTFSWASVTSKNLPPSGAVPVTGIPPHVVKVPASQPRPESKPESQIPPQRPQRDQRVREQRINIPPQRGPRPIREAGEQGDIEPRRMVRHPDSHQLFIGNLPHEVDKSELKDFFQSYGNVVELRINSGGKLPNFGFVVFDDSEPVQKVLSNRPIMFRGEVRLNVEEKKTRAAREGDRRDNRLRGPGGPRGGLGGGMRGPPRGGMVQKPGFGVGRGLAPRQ
Method: RNA Bind-n-Seq
Molecule type: RNA
Medium: in vitro
Concentration: 1 µM
Notes: whole 134-nt RNA, ends assumed
Added: 150 mM KCl
Baseline: input library
Direction: higher = stronger binding
Quantity: log2 enrichment
Constant ends, left off below: GGGAGUUCUACAGUCCGACGAUC … UGGAAUUCUCGGGUGUCAAGG
Sequence = UAACUUUAGAGGAGGAUCUGAUGGAUAUGGCAGUGGCCGUGGAUUUGGGGAUGGCUAUAAUGGGUAUGGAGGAGGACCUGGAGGUGGCAA; value = -0.714
Sequence = CACAGACAACACGCACCCACACAGACACAGAGGGAAGGGGUUGGGAUGGGGACAGGGUGCACAGCAGGGCGGGGUAGGACCCCAGCCACU; value = -0.346
Sequence = UAACUUUAGAGGAGGAUCUGAUGGAUAUGGCAGUUGACGUGGAUUUGGGGAUGGCUAUAAUGGGUAUGGAGGAGGACCUGGAGGUGGCAA; value = -0.618
Sequence = UUUUCUGCAUGGACCGUGCCCUAGAAUUUGCCCCUGCCUGCCAUCGCUUCAAAAUCCUCAAGGCAGAAUGUUUAGCAAUGCUGGGUCGUU; value = -0.112
Sequence = AGUCCUGUGCUACACAUCGUAUGUACCGAAUCGGGAAAAAGGGAAAAAGGGUUUGGGAAAGUAUUAUGUUACGCCGUUCGGAUCUGCACU; value = 0.201
Sequence = UGGCCCUGGUGGCAUGCGGGGAGGAAGAGGUGGCCUCAUGGAUCGUGGUGGUCCCCGUGGAAUGUUCAGAGGUGGCCGUGGUGGAGACAG; value = 0.622
Sequence = CCUGUGCUACACAUCGUAUGUACCGAAUCGGGAAAAAAGGGGAAAAAAGGGAAAAAAGGGAAAGUAUUAUGUUACGCCGUUCGGAUCUGC; value = -0.0351
Sequence = CCUGUGCUACACAUCGUAUGUACCGAAUCGGGUUUUUUGGGGUUUUUUGGGUUUUUUGGGGAAAGUAUUAUGUUACGCCGUUCGGAUCUG; value = -0.283
Sequence = UGUGCUACACAUCGUAUGUACCGAAUCGGGCCCCCCCGGGGCCCCCCCGGGGCCCCCCCGGGAAAGUAUUAUGUUACGCCGUUCGGAUCU; value = -0.569
Sequence = ACCAUGCAGGUGGGCAUCUUUGGGAAGUGGGGCAAGGAGGGGAUAGGGAGGGGGGUAACACUUUGGGAACAGGUGGUCCCAGGUCGUUUC; value = -0.34
Sequence = AGUCCUGUGCUACACAUCGUAUGUACCGAAUCGGGAAAAAGGGUGGGUUUUUUUGGGAAAGUAUUAUGUUACGCCGUUCGGAUCUGCACU; value = 0.548
Sequence = AGUCCUGUGCUACACAUCGUAUGUACCGAAUCGGUUUUUGGGGUUUUUGGGUUUUUGGAAAGUAUUAUGUUACGCCGUUCGGAUCUGCAC; value = -0.142
Sequence = CUCAAGUCCUGUGCUACACAUCGUAUGUACCGAAUCGGGGAGGGGAGGAGGGGAAAGUAUUAUGUUACGCCGUUCGGAUCUGCACUUCCA; value = 0.252
Sequence = UUCUUGCCAGAGACGAAGAAGCGCAAGAAACGCAAGUCAGAGGAUGGCACGCCAGCGGAGGAUGGCACACCUGCAGCCACCGGCGGGAGC; value = -0.403

Sample 5
Target: Prothrombin, mature alpha-thrombin (F2, Homo sapiens, UniProt P00734)
Method: aptamer microarray, sandwich
Molecule type: DNA with 2'F-ANA
Medium: in vitro
Concentration: 200 nM
Notes: whole 15-mer aptamer, many near background
Added: Cy3 exosite-II aptamer, 400 nM
Direction: higher = stronger binding
Quantity: mean fluorescence intensity
Sequence: GGTTGGTGTGGTTGG
Modification = 2'F-ANA at 6 9 10 12 13 15; value = 163 a.u.
Modification = 2'F-ANA at 2 3 7 9 12 14; value = 465 a.u.
Modification = 2'F-ANA at 10 12; value = 240 a.u.
Modification = 2'F-ANA at 4 5 6 8 9 11 12; value = 102 a.u.
Modification = 2'F-ANA at 2 3 6 7 9 15; value = 587 a.u.
Modification = 2'F-ANA at 1 4 5 6 7 9 10 12 13 14; value = 49.4 a.u.
Modification = 2'F-ANA at 4 6 7 8 9 10 13; value = 63.9 a.u.
Modification = 2'F-ANA at 3 8 10 12; value = 672 a.u.
Modification = 2'F-ANA at 2 6 9 11 12 14 15; value = 131 a.u.
Modification = 2'F-ANA at 4 12 15; value = 702 a.u.
Modification = 2'F-ANA at 4 7 8 9 10; value = 93.2 a.u.
Modification = 2'F-ANA at 1 3 5 6 7 8 10 13 14; value = 51.2 a.u.
Modification = 2'F-ANA at 1 3 5 11 14; value = 41.7 a.u.
Modification = 2'F-ANA at 7 8 9; value = 627 a.u.
Modification = 2'F-ANA at 1 2 4 6 9 10 12 14; value = 46 a.u.
Modification = 2'F-ANA at 2 3 4 9 11 12 13 14; value = 266 a.u.
Modification = 2'F-ANA at 3 4 5 7 8 9 10 13 14 15; value = 47.2 a.u.
Modification = 2'F-ANA at 5 11 14 15; value = 45.8 a.u.
Modification = 2'F-ANA at 6 7 11 12 13; value = 598 a.u.
Modification = 2'F-ANA at 1 4 5 6 7 9 11 13 15; value = 171 a.u.
Modification = 2'F-ANA at 1 2 4 5 7 8; value = 64.5 a.u.
Modification = 2'F-ANA at 6 7 8 9 10 11 15; value = 134 a.u.
Modification = 2'F-ANA at 1 2 5 6 7 8 13; value = 55.1 a.u.
Modification = 2'F-ANA at 1 3 8 10 12 14; value = 59.8 a.u.
Modification = 2'F-ANA at 1 2 3 6 7 9 12 14 15; value = 77.1 a.u.

Sample 6
Target: CREBL2, bZIP domain (human)
Method: DHFR protein complementation
Medium: yeast
Notes: single substitutions, most at no-binding floor
Baseline: wild-type JUN-FOS pair
Direction: higher = stronger binding
Quantity: binding fitness
Parent: JUN, bZIP domain (human); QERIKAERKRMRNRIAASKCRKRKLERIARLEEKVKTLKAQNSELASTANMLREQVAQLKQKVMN; partner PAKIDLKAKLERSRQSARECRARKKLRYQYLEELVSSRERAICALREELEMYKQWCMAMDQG
Variant = K39V; value = -1.52 natural log
Variant = L31G; value = -1.51 natural log
Variant = V56K; value = -1.58 natural log
Variant = A40E; value = -1.35 natural log
Variant = T37Q; value = -1.26 natural log
Variant = E44D; value = -1.43 natural log
Variant = K39T; value = -1.54 natural log
Variant = I28E; value = -1.52 natural log
Variant = A49D; value = -1.66 natural log
Variant = E54V; value = -1.55 natural log
Variant = A29R; value = -1.41 natural log
Variant = N42M; value = -1.48 natural log
Variant = V56M; value = -1.47 natural log
Variant = T48R; value = -1.4 natural log
Variant = E54Q; value = -1.47 natural log
Variant = A57T; value = -1.57 natural log
Variant = K39D; value = -1.42 natural log
Variant = A46C; value = -1.57 natural log
Variant = T48L; value = -1.41 natural log
Variant = T48H; value = -1.54 natural log
Variant = V56E; value = -1.53 natural log
Variant = N42H; value = -1.41 natural log
Variant = K36M; value = -1.24 natural log
Variant = A46P; value = -1.47 natural log
Variant = I28Q; value = -1.46 natural log

Mixed results
Substance = PhoQ, residues 284 288 289 292 302 303 SLANKL; target = PhoP, residues 12 14 15 18 19 SPWRL (Escherichia coli, UniProt P23836); assay = Sort-seq, measured: YFP reporter; test system = E. coli; conditions = PhoQ-PhoP variant library, added: 10 µM Mg2+; scale = baseline: high Mg2+ state, higher = stronger signaling; quantity = fold induction; value = 2.1

Repeated from above (sample 3):
Variant = R4S; value = 1.11
Variant = E8R; value = 3.37
Variant = L9Y; value = 6.84
Variant = N11I; value = 3.6
Variant = R4Y; value = 1.01
Variant = R2K; value = 5.49
Variant = R4C; value = 2.21
Variant = L7R; value = 1.12
Variant = A3R; value = 0.915
Variant = R2Y; value = 2.23
Variant = R4P; value = 0.344
Variant = K5D; value = 0.399
Variant = A3W; value = 1.18
